Measured values from different studies.
Each line is one published result; not all experiments were run side by side. ± marks the error that the study gave.
HDAC1: Histone deacetylase 1 (HDAC1, Homo sapiens, UniProt Q13547)
Sequence of UniProt Q13547 (whole entry, looked up): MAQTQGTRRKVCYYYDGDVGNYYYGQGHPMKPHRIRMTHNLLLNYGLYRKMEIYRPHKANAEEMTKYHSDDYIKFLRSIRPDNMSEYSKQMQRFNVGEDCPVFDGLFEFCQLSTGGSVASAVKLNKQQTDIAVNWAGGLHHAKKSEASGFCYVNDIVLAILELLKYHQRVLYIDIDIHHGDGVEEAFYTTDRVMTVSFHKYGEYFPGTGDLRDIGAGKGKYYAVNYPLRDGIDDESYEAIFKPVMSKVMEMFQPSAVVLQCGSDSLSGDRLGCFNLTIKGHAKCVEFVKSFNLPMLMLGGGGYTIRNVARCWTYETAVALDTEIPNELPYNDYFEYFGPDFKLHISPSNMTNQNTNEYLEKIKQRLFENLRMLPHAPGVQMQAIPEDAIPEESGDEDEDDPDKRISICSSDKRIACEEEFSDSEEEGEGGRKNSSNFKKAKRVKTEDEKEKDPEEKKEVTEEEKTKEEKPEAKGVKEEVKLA
PTAFR: Platelet-activating factor receptor (PTAFR, Homo sapiens, UniProt P25105)
Sequence of UniProt P25105 (whole entry, looked up): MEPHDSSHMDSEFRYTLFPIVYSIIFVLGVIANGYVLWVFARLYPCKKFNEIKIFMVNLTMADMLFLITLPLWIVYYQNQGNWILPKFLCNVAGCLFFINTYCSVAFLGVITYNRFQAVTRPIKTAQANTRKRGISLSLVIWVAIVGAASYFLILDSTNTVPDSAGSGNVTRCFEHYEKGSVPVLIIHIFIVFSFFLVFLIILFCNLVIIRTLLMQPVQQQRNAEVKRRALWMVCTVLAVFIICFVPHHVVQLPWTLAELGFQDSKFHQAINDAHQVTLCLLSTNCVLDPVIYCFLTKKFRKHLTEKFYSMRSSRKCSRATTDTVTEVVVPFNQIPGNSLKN
CTSL: Procathepsin L (CTSL, Homo sapiens, UniProt P07711)
Sequence of UniProt P07711 (whole entry, looked up): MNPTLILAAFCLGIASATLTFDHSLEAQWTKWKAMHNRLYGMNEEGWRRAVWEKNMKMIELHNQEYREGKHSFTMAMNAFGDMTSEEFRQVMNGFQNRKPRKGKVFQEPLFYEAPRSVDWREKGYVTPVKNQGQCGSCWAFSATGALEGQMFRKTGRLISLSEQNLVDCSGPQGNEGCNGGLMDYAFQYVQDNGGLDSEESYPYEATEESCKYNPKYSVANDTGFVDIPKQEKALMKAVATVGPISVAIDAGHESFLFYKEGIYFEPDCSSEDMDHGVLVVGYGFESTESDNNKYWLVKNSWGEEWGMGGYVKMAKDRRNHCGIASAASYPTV
Sequence of UniProt P55201 (whole entry, looked up): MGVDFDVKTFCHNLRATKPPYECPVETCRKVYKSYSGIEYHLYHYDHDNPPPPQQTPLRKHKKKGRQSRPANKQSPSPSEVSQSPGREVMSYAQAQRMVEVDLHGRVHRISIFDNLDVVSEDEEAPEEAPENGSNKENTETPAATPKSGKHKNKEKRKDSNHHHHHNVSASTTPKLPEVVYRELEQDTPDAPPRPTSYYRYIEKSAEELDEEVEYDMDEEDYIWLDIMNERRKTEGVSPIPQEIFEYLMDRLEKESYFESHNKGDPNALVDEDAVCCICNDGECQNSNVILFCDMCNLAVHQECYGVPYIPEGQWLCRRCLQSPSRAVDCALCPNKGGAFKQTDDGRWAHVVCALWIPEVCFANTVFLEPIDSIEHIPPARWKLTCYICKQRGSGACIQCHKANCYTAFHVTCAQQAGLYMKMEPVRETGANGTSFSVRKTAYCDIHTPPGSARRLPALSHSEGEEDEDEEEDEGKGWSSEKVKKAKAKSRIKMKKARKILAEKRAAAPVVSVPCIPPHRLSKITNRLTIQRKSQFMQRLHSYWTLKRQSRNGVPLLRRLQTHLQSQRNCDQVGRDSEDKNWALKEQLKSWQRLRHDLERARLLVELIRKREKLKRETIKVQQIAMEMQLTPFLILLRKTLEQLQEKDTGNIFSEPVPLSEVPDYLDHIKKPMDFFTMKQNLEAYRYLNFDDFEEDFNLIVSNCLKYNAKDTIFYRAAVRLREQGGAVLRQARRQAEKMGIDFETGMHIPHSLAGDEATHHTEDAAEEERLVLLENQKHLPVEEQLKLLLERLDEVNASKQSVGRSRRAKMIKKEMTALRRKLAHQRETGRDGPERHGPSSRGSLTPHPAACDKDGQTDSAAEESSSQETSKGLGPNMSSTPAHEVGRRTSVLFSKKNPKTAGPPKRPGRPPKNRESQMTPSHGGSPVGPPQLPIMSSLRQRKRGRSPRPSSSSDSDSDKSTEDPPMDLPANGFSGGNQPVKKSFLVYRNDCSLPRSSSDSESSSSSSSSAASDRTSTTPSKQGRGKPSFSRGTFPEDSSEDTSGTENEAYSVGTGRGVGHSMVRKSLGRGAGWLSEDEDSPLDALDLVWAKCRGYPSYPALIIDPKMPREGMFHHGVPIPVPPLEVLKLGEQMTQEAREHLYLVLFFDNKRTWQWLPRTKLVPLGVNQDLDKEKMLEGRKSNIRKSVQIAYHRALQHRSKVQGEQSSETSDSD
Sequence of UniProt O43463 (whole entry, looked up): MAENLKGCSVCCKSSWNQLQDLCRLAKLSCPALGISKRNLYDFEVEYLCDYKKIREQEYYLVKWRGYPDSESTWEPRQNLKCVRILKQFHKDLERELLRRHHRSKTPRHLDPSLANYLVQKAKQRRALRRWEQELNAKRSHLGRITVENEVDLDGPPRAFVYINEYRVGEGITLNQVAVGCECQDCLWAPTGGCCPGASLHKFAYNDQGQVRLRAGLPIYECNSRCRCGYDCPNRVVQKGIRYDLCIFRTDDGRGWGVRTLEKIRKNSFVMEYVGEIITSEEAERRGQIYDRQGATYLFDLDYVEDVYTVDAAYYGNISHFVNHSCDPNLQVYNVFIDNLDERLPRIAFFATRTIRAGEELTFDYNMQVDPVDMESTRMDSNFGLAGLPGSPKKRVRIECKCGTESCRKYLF
Sequence of UniProt P48145 (whole entry, looked up): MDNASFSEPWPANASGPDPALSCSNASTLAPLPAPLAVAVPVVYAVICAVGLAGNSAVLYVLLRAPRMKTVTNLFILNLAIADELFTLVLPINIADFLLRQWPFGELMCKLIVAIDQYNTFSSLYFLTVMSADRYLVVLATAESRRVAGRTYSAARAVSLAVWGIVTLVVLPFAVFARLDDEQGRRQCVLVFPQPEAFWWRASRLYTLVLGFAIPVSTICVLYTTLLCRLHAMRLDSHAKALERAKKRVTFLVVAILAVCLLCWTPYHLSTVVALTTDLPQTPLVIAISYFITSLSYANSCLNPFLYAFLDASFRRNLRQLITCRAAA
Sequence of UniProt P43490 (whole entry, looked up): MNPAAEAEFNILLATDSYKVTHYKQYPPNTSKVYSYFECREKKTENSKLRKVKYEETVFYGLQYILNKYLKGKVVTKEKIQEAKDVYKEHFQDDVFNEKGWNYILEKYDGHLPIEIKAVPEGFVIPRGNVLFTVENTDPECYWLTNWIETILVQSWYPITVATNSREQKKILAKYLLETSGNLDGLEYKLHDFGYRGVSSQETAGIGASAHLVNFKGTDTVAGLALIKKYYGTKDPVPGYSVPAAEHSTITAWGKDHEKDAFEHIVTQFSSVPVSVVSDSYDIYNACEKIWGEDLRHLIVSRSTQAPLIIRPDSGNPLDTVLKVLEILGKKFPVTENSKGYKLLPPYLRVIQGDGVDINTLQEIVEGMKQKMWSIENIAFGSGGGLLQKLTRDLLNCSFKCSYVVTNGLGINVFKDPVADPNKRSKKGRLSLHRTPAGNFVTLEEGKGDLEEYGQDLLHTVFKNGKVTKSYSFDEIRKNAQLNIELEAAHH
Sequence of UniProt O08914 (whole entry, looked up): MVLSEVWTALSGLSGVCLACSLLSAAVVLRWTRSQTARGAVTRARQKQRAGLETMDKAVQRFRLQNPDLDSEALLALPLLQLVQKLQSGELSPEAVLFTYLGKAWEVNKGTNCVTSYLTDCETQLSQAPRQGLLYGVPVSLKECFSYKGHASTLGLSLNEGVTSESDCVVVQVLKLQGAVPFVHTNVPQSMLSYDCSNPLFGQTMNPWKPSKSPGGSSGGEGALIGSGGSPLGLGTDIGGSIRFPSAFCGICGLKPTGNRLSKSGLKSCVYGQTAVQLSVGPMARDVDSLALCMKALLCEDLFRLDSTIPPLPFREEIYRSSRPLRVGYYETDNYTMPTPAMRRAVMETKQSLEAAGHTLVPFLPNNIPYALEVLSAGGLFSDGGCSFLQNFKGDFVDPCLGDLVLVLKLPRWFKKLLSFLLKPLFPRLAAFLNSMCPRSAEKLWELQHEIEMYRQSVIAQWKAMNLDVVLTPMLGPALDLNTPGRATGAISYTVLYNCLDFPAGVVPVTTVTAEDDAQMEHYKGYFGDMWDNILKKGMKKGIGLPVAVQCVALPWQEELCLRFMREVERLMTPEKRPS
Sequence of UniProt P08173 (whole entry, looked up): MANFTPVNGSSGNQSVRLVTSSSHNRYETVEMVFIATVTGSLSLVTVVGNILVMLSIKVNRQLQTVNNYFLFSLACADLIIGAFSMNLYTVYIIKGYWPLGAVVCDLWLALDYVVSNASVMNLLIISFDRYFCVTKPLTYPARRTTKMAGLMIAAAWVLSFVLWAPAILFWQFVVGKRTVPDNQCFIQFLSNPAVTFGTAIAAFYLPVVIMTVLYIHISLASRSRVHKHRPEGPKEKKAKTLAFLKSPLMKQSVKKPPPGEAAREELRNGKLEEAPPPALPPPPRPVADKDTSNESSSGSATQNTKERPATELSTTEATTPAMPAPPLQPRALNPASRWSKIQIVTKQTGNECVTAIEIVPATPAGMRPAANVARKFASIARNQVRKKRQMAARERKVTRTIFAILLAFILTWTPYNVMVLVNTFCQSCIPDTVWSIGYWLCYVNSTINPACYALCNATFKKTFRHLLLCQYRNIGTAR

CC(C)(C)c1cccc(OS(=O)(=O)Oc2cc(F)cc(C(=O)NO)c2)c1  inhibition (HDAC1; enzyme activity, inhibitor, fluorescence; 5 µM): 11%
Brc1ccccc1-c1nnc(CSc2nnnn2-c2ccccc2)o1  inhibition (CHRM4 (Homo sapiens, UniProt P08173); ligand displacement, radioligand; 10 µM): -12%
O=C1c2sc(-c3ccc(N4CCC(CO)CC4)nc3F)nc2CCN1c1cccnc1  inhibition (PTAFR; ligand displacement, radioligand; 1 µM): -19%
CN(Cc1ccc(/C=C/C(=O)NO)cc1)CC12CC3CC(CC(C3)C1)C2  inhibition (human D5 receptor; antagonist radioligand binding; 0.05 µM): -1%
Cc1ccc(CN(C)C(=O)C(CCc2ccccc2)NC(=O)C(NC(=O)c2ccc(OCc3ccccc3)cc2)C(C)O)cc1 (stereo not shown)  inhibition (CTSL; enzyme activity, inhibitor; 100 µM): -9%
CC(=O)NCCNCc1cc(Cl)c(OCc2cccc(-c3cccc(OCc4ccc(/C=C/C(=O)NO)cc4)c3)c2C)cc1OCc1cccc(C#N)c1  inhibition (HDAC1; enzyme activity, inhibitor; 1 µM): 5.42%
CN1CCN(C(=O)n2ccnn2)CC1  inhibition (Faah (Mus musculus, UniProt O08914); serine hydrolase activity, inhibitor, competitive gel-based ABPP; mouse T-cell proteome; 1 µM, 30 min, 37 °C): 50 to 95%
CC(C)C[C@H](NC(=O)[C@H](CC(C)C)NC(=O)CNC(=O)[C@H](C)NC(=O)[C@H](C)NC(=O)[C@H](CCCNC(=N)N)NC(=O)CNC(=O)CCCCNC(=O)CCCCNC(=O)CCCCNC(=O)[C@H](CCCCN)NC(=O)[C@H](Cc1ccc(O)cc1)NC(=O)[C@@H](N)Cc1cn(C)c2ccccc12)C(N)=O  inhibition (NPBWR1 (Homo sapiens, UniProt P48145); calcium signal, antagonist; 10 µM): 98%
Cc1c(COc2cc(OCc3cccc(C#N)c3)c(CN3CCCC[C@@H]3C(=O)O)cc2Cl)cccc1-c1cccc(OCCCCCCC(=O)NO)c1  inhibition (HDAC1; enzyme activity, inhibitor; 1 µM): 82.2%
COCC(=O)N1CCc2cc(-c3csc(NC(=O)c4cc(OC)cc(OC)c4)n3)ccc21  inhibition (PTAFR; ligand displacement, radioligand; 10 µM): 23%
COc1ccc2nc(C)ccc2c1Nc1sn(C)c(=O)c1C#N  inhibition (NAMPT (Homo sapiens, UniProt P43490); enzyme activity, inhibitor; 10 µM): 2%
C[Si](C)(C)C[C@H](CN)CC(=O)O  inhibition (Grin1 (Rattus norvegicus, UniProt P35439); ligand displacement, radioligand; 250 µM): -3%
CCn1cc(-c2cccc(C(F)(F)F)c2)c2sc(C(=N)NC3CCS(=O)(=O)CC3)cc2c1=O  inhibition (Peregrin (BRPF1, Homo sapiens, UniProt P55201); 1 µM): -0.6%
CN1CC[C@@H](COc2cnc(C#N)cc2-c2ccn3nc(NC(=O)C4CC4)cc3c2)C1  inhibition (TRPM7 (Homo sapiens, UniProt Q96QT4); kinase activity, inhibitor; 1 µM, together with: ATP 45 µM): -1%
CC(C)C[C@H](NC(=O)[C@H](CCC(N)=O)NC(=O)[C@H](CCCCN)NC(=O)[C@H](CCCNC(=N)N)NC(=O)[C@@H]1CCCN1C(=O)[C@H](C)NC(=O)[C@@H](N)CCCCN)C(=O)N[C@@H](C)C(=O)N[C@H](C(=O)N[C@@H](CCCCN)C(=O)N[C@@H](C)C(=O)N[C@@H](C)C(=O)N[C@@H](CCCNC(=N)N)C(=O)N[C@@H](CCCCN(C)C)C(=O)N[C@@H](CO)C(=O)N[C@@H](C)C(=O)N1CCC[C@H]1C(=O)N[C@@H](C)C(=O)O)[C@@H](C)O  inhibition (CTSL; enzyme activity, inhibitor; 25 µM, pH 6.0, 25 °C, together with: Z-LR-Mca at 0.16 x Km): 85 ± 0.1%
CN(C)C/C=C/C(=O)Nc1ccc2nc(NCCCCCN(C)C)nc(NCCCCCCN(C)C)c2c1  inhibition (SUV39H1 (Homo sapiens, UniProt O43463); enzyme activity, inhibitor, radiometric; 10 µM): 48%

Some of these lines once more:
CN(C)C/C=C/C(=O)Nc1ccc2nc(NCCCCCN(C)C)nc(NCCCCCCN(C)C)c2c1  inhibition (SUV39H1 (Homo sapiens, UniProt O43463); enzyme activity, inhibitor, radiometric; 10 µM): 48%
CN1CCN(C(=O)n2ccnn2)CC1  inhibition (Faah (Mus musculus, UniProt O08914); serine hydrolase activity, inhibitor, competitive gel-based ABPP; mouse T-cell proteome; 1 µM, 30 min, 37 °C): 50 to 95%
CC(=O)NCCNCc1cc(Cl)c(OCc2cccc(-c3cccc(OCc4ccc(/C=C/C(=O)NO)cc4)c3)c2C)cc1OCc1cccc(C#N)c1  inhibition (HDAC1; enzyme activity, inhibitor; 1 µM): 5.42%
